Assay results gathered from unrelated publications.
Compare with care: the assays were run in different laboratories. pEC50, pIC50: −log10 of the molar value.

CN1CCCNC(=O)c2cccc(c2)C(=O)NCCCN(C)CCCNc2cccc3c2C(=O)c2cccc(c2C3=O)NCCC1  log2 fold change (SAS; RNA-Seq, item: GADD45B mRNA; 5 µM, 24 h; reference: untreated cells): 0.711
CSC(=S)N/N=C(\C)c1ccc(Nc2nnc(-c3ccc(Cl)cc3)c3ccccc23)cc1  viability (MCF7; cell growth or viability, MTT; 0.156 µM, 24 h): 50.8%
Cc1ncsc1-c1ccc(C(C)NC(=O)C2CC(O)CN2C(=O)C(NC(=O)CCCCCCCCCCN2CCCC(Nc3ncc(Cl)c(Nc4ccccc4S(=O)(=O)C(C)C)n3)C2)C(C)(C)C)cc1 (stereo not drawn)  log2 fold change (22Rv1; RNA-seq, item: SHC4 mRNA; concentration not given; reference: DMSO): -2.56
CC(C)c1ccc(N(C)c2ccc3c(c2)OCC[C@H]3CNc2cnccc2C(=O)O)cc1  pIC50 (KYSE-510; cell viability, CellTiter-Glo; 7 days): 8.47
Cc1n[nH]c(C)c1-c1cc2c(N3CCC[C@H](C(=O)NCc4ccc(OC(F)(F)F)cc4)C3)ncnc2[nH]1  inhibition (NCI-H2228; cell growth or viability, MTT; 5 µg/mL, 72 h): 78.8%
CCN(C(=O)c1cc(F)ccc1Oc1nncnc1N1CCC2(C1)CN([C@H](CCCN(C)CCOC)C(C)C)C2)C(C)C  GI50 (A204; muscle; 72 h): > 10000 nM
O=C(C[Se]C(=O)C12CC3CC(CC(C3)C1)C2)Nc1cccc(C(F)(F)F)c1  mean TGI (NCI60 renal subpanel; total growth inhibition, inhibitor; five-dose): 8340 nM
CO[C@@H]1[C@@H](OC(N)=O)[C@@H](O)[C@H](Oc2ccc3c(O)c(NC(=O)c4ccc(O)c(CC=C(C)C)c4)c(=O)oc3c2C)OC1(C)C  colony survival (HCT-116 BRCA2 wild-type; 100 µM, replicate B; reference: untreated): 77.3%
CCc1nnc(NC(=O)c2cccc(C(=O)Nc3nnc(CC)s3)n2)s1  pEC50 (LDR; silenced CMV-GFP reporter derepression, qHTS): 5.60
CNS(=O)(=O)Nc1nccc(Cc2c(C)c3ccc(Oc4ncccc4F)cc3oc2=O)c1F  pIC50 (CCK-81; cell viability, CellTiter-Glo; 7 days): 6.19
Cc1cc(NC2CCN(C)CC2)ccc1-c1cc2c(N3CCC[C@H](C(=O)NCc4ccc(OC(F)(F)F)cc4)C3)ncnc2[nH]1  inhibition (NCI-H2228; cell growth or viability, MTT; 5 µg/mL, 72 h): 95.8%
COC(=O)c1cc(NC2=NC(=O)C(=Cc3ccc(C)cc3)S2)ccc1OC(C)=O  metabolite level (MCF7; GC-MS, item: Myo-Inositol; 1 µM; reference: DMSO): 0.26 fold change
O=C(C[Se]C(=O)c1ccc2ccccc2c1)Nc1cccc(C(F)(F)F)c1  GI50 (NCI60 NSCLC subpanel; NCI60 five-dose screen): 1780 nM
Cc1sc2c(c1C)C(c1ccc(Cl)cc1)=N[C@@H](CC(=O)NCC(=O)N1CCC3(CCC(C(=O)N4CCN(C(=O)c5cc(Cc6n[nH]c(=O)c7ccccc67)ccc5F)CC4)CC3)CC1)c1nnc(C)n1-2  cells in G1 phase (NCI-H82; 100 nM, 24 h): 11%
Cc1nn(C)cc1-c1cc2c(N3CCC[C@H](C(=O)NCc4ccc(OC(F)(F)F)cc4)C3)ncnc2[nH]1  inhibition (NCI-H2228; cell growth or viability, MTT; 0.04 µg/mL, 72 h): 62%
Oc1c(/N=N/c2ccccn2)ccc2ccccc12  Emax (LDR; silenced CMV-GFP reporter derepression, qHTS): 124%
Cc1cc(NC2CCN(C)CC2)ccc1-c1cc2c(N3CCC[C@H](C(=O)NCc4ccc(Cl)nc4)C3)ncnc2[nH]1  inhibition (NCI-H2228; cell growth or viability, MTT; 1 µg/mL, 72 h): 66%
CCN(CC)CC(=O)Nc1cccc(-n2cc(-c3ccc4ccc(-c5cn(-c6cccc(NC(=O)CN(CC)CC)c6)nn5)cc4c3)nn2)c1  fold regulation (RCC4; PCR angiogenesis array, item: TGFB2; 5 x IC50, 2 h, normoxia; reference: untreated): 1.04 fold

Some of these lines once more:
CCc1nnc(NC(=O)c2cccc(C(=O)Nc3nnc(CC)s3)n2)s1  pEC50 (LDR; silenced CMV-GFP reporter derepression, qHTS): 5.60
